{"data": "Results gathered from unrelated publications", "note": "Each numbered part is a random draw from the data of one study; scales do not carry over between parts. Positions count from the first letter of the parent shown.", "chain of UniProt Q9LQE8 (whole entry, looked up)": "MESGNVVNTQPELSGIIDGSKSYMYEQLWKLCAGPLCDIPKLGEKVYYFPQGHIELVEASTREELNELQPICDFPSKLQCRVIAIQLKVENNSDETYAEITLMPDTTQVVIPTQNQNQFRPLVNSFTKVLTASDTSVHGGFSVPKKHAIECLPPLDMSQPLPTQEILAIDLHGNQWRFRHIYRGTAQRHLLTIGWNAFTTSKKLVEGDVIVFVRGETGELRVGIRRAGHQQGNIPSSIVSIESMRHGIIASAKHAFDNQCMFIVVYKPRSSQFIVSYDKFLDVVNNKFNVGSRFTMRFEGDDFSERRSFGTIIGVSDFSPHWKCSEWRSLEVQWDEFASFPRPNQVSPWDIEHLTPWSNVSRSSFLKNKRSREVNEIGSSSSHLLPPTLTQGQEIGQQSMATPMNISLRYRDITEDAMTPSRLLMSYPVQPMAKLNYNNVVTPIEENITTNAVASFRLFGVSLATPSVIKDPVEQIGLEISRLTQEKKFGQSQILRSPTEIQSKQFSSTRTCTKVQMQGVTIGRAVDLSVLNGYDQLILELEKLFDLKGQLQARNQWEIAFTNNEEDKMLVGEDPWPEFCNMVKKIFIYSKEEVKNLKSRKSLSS", "chain of UniProt Q9XED8 (whole entry, looked up)": "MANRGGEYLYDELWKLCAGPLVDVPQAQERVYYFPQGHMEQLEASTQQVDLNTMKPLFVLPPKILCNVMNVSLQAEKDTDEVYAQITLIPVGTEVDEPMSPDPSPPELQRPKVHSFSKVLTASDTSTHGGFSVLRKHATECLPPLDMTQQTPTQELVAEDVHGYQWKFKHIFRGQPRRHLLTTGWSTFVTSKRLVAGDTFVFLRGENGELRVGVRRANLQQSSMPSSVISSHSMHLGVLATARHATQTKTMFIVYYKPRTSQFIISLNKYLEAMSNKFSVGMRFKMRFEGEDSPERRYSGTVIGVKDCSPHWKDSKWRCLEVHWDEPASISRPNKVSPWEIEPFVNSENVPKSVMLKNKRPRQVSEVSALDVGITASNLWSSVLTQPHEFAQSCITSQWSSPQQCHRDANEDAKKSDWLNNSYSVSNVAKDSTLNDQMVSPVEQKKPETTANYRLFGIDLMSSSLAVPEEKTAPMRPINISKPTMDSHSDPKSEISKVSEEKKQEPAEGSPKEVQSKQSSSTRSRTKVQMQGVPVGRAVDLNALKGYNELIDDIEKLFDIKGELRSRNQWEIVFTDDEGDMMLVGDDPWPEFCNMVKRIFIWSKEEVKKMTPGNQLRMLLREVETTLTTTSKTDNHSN", "chain of UniProt Q9SKN5 (whole entry, looked up)": "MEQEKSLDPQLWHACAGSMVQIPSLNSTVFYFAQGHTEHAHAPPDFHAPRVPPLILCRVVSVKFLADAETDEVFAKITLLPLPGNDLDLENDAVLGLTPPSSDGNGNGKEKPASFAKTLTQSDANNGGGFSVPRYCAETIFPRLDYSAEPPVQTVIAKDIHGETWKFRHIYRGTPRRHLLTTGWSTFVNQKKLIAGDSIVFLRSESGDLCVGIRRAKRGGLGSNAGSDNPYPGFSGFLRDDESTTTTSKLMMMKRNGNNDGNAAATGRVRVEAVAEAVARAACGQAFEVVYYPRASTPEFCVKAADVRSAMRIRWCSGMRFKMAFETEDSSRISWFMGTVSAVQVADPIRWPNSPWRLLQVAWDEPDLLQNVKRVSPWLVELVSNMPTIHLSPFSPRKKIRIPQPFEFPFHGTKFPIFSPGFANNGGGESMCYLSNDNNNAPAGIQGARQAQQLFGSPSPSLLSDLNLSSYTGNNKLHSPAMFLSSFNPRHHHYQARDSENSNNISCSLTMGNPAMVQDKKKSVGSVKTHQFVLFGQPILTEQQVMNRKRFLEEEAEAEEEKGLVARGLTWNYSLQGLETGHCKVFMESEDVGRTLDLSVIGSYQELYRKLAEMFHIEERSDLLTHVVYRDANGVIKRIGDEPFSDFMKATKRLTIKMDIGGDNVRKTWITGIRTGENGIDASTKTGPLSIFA", "chain of UniProt Q93YR9 (whole entry, looked up)": "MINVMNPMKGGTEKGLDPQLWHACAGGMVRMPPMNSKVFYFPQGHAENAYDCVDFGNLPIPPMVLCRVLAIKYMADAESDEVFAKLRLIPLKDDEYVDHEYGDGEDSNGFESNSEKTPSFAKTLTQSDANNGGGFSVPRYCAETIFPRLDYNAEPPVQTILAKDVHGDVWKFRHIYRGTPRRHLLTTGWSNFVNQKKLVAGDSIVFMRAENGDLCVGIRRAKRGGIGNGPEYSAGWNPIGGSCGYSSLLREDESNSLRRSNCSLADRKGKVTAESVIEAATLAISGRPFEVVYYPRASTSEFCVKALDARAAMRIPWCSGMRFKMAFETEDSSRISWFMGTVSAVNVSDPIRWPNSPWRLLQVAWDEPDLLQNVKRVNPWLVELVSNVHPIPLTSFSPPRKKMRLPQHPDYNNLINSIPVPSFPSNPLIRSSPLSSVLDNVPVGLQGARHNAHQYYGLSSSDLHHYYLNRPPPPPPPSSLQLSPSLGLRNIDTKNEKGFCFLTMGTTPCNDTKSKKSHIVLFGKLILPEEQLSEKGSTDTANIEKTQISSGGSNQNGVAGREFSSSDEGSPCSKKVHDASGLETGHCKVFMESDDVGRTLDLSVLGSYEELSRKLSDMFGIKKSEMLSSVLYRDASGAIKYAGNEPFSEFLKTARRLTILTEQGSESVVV", "chain of UniProt Q9FX25 (whole entry, looked up)": "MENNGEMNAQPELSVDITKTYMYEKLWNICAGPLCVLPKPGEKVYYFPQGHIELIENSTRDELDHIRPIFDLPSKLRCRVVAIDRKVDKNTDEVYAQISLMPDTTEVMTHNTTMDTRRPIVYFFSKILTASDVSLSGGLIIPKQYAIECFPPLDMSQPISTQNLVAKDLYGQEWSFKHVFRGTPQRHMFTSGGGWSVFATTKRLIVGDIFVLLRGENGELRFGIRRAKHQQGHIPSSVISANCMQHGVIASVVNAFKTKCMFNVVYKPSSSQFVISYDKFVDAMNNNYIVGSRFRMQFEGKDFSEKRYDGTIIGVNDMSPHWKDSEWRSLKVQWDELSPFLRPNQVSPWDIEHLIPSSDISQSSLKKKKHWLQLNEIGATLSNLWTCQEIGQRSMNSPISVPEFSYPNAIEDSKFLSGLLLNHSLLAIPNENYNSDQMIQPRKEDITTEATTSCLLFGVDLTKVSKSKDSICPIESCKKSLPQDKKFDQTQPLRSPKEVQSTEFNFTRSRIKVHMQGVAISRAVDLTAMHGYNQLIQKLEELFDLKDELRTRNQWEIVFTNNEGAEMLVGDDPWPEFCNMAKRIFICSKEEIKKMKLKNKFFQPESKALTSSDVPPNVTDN", "chain of UniProt Q9FKM7 (whole entry, looked up)": "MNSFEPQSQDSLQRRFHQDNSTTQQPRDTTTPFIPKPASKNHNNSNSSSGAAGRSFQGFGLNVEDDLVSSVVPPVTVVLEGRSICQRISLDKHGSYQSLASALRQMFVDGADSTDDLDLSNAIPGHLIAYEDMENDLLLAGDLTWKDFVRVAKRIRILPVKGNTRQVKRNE", "chain of UniProt Q9ZSY8 (whole entry, looked up)": "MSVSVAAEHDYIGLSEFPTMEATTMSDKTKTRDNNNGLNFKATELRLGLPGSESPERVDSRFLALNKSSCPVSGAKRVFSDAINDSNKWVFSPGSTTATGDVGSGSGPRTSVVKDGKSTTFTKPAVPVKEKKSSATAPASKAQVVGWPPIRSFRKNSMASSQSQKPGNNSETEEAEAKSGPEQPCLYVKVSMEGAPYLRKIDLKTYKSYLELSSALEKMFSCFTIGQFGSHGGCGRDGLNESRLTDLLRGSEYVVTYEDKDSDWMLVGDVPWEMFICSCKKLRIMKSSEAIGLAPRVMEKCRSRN", "chain of UniProt Q9XID4 (whole entry, looked up)": "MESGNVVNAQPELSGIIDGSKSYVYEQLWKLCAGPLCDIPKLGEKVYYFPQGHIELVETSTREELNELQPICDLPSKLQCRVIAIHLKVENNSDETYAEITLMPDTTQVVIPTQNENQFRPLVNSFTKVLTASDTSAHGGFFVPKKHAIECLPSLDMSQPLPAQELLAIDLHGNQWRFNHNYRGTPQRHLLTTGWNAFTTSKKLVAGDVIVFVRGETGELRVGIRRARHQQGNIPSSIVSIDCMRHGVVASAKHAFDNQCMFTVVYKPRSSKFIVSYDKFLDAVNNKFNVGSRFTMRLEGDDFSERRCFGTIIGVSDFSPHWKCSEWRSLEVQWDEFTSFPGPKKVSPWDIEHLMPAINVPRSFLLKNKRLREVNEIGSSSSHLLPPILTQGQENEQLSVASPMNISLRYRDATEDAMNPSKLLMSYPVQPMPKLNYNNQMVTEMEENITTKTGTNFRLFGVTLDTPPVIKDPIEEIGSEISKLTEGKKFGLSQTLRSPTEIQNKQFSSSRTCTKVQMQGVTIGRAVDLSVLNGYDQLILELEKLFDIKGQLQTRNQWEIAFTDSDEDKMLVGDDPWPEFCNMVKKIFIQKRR"}
{"data": "Block 1", "target": "Hepatocyte nuclear factor 3-alpha (Foxa1, Mus musculus, UniProt P35582, residues 1-468, full length assumed)", "method": "EMSA with sequencing", "form": "double-stranded DNA, one strand shown", "matrix": "in vitro", "concentration": "10 and 20 nM", "setting": "whole designed probe, mean of two concentrations, ends assumed", "baseline": "negative control set to 0", "reading": "higher = stronger binding", "shared flanks, not repeated": "GTGAGCGGTGCCCATTGATGGGGAAC … TTTCACTGGGATCGTGGGGAC", "chain of UniProt P35582 (whole entry, looked up)": "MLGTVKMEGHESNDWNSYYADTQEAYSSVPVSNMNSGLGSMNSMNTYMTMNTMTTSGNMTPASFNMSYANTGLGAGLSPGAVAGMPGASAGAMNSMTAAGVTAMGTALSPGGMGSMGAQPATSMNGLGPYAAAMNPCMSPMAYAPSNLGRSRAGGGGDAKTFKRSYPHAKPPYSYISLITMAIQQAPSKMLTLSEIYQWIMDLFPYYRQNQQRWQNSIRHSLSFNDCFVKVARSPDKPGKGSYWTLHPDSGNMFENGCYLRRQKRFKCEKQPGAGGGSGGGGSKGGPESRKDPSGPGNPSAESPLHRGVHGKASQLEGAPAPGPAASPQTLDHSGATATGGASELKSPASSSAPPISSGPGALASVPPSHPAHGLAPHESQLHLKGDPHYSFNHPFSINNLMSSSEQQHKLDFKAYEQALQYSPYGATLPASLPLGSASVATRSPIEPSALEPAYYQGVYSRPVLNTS"}
{"Oligonucleotide": "ATCTTCCCCCTCTTCCTTGCCCCACCAGCTCACCTACGGGGGTTATTTGCAGATAGGAAAATAAATAAAGCCGGCATTCGTTAACGCAGTTCTGGCGCAAACTGCTGTTTGCTCTGGATCTAACATGGTCCTTTGGCGACGCCAGGCTCCGGGAGAGCAAAGCACCGTGTCAGGGCCATGATCCGGGGTGGCC", "normalised bound fraction": "0.346 ratio"}
{"Oligonucleotide": "AACTTTCATGCACAAAAAGACACATGAGCATCATCTAATAAATATTCCTTCTTGTTACAGATGAGAAACAGGCTGGGCATGGTGACTCATGCCAGATTACCCAGCACTTTACAAGGCCAAGATGGGAGGATCACTTGAGCCCAGGGGCTCGAGACCAGCCTGGGCAACATGGTGAGACCTCATCTCTACAAAA", "normalised bound fraction": "0.265 ratio"}
{"Oligonucleotide": "GGCGGAAGTGGAAAGAAATTGAGGGATCTGAATTTGTTGTTTACTAGGAGGTGTGGGTCCAACTTCCAACCTTGTCCCCAGACCTTTTCCAGGTGTTTGCTTAGGAAGCACTGCCATCTTGTGGCTTACTATAGTTATTGCAGACAGAAGGAAAATCTACCAAAGCCCCCATGACAATACCAATGAGCAATGA", "normalised bound fraction": "0.242 ratio"}
{"Oligonucleotide": "ATCTTCCCCCTCTTCCTTGCCCCACCAGCTCACCTTCCCGGGTCAAAGTAAACAAGTGTTTACTTTGAAGCCGGCATTCGTTAACCCTCTTCTGGCGCAAACTGCCAGAGCAAACAGATCTAACATGGTCCTTTGGCGACGCCAGGCTCCGGGAGAGCAAAGCACCGTGTCAGGGCCATGATCCGGGGTGGCC", "normalised bound fraction": "0.463 ratio"}
{"Oligonucleotide": "GGAAGCTGAACTAGGCAGTGGGTCCCCAGGGATGGTGGGAAGTGACGAGGGCTCAGGGATCTGCCCACTTACTCTTTATTTGCAAACAGTATGTAAACACACATGCAAGCTGTCACTGCCCTCAGGGCGCTGGCATGCTGCCACCCCAGCCCCTGGATCCTGGTGCTTGGGCGCCTTGGCTTTATAGCATTTG", "normalised bound fraction": "0.421 ratio"}
{"Oligonucleotide": "GTCTAGCTCCAGTCTTAGCATGGCAATTTCTTCCCGCAACGTACTATTTTCATGCAAGAAGTCTTTTTCTTTCTTACAACTAAGAGAAAGCTAAGTAAACAAAGAGAACTTTTAGTTAGCACTCAATAGATTGACATATCATTATTTCTTCTGAAATTCAAAAATAACATGTATTTGTATAATGAAAGAATCC", "normalised bound fraction": "0.497 ratio"}
{"Oligonucleotide": "CTGTATGTCATCTTGCTCCTGGGCCACCTGACTGATGTTTAATGCCTGGAAAATTGCTTTCACCTCTGCATGACCAAGCCTTGGCCAAGTCACAGATGACTCAGTTGCAACATCTGTCCCCTGCTGAGGGCTGTTGTAGCTTTCATAGCTCACAGTCCAGCTTGAATCTAACCTTTTCTGTGGTCATTCAGAG", "normalised bound fraction": "-0.0662 ratio"}
{"Oligonucleotide": "CTAGTTCCAGTCTTAGCATGGCAATTTCTTCCTGCAACACGCTGTTTTCACGCAAGAGATCTTCTTCTTTCTTATGACTAAGAGAAAGCTAAGTAAACAAAGGGAACTTTTAGTTAGCACTCAATAGAATGACATATCATGATTTCTTCTAAAATTAAAGAATGACATTTATATTTGTATAATGAAATAATTC", "normalised bound fraction": "0.546 ratio"}
{"data": "Block 2", "target": "FOSB, bZIP domain (human)", "method": "DHFR protein complementation", "matrix": "yeast", "setting": "single substitutions, most at no-binding floor", "baseline": "wild-type JUN-FOS pair", "reading": "higher = stronger binding", "parent": "JUN, bZIP domain (human); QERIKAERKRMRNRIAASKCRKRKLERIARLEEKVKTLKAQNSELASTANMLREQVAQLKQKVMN; partner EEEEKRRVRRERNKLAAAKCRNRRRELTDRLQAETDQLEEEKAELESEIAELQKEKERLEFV"}
{"Substitution": "A46L", "binding fitness [natural log]": -0.112}
{"Substitution": "A46R", "binding fitness [natural log]": 0.0662}
{"Substitution": "I28W", "binding fitness [natural log]": -0.153}
{"Substitution": "R53W", "binding fitness [natural log]": -0.997}
{"Substitution": "L45A", "binding fitness [natural log]": -0.875}
{"Substitution": "A49H", "binding fitness [natural log]": -0.704}
{"Substitution": "A57E", "binding fitness [natural log]": 0.0112}
{"Substitution": "V56P", "binding fitness [natural log]": -0.954}
{"Substitution": "N42Q", "binding fitness [natural log]": -0.711}
{"Substitution": "I28M", "binding fitness [natural log]": -0.165}
{"Substitution": "E54A", "binding fitness [natural log]": -0.117}
{"Substitution": "V35A", "binding fitness [natural log]": -0.263}
{"Substitution": "L45P", "binding fitness [natural log]": -1.1}
{"Substitution": "A46M", "binding fitness [natural log]": -0.107}
{"data": "Block 3", "target": "CCNB1, cyclin fold, Cln2 fusion (human)", "method": "yeast growth competition, sequencing", "matrix": "yeast", "setting": "strong parent motif", "baseline": "not given", "reading": "higher = stronger binding", "parent": "DBF4 docking peptide (human); DDIVSKLVFDFVE; partner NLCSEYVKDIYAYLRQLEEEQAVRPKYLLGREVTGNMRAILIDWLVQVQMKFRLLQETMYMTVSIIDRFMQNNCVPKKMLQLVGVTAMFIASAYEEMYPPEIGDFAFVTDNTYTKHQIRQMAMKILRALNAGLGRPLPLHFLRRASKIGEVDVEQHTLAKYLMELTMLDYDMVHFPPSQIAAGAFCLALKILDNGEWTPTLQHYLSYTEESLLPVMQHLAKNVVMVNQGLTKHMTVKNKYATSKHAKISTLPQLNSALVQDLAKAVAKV"}
{"Substitution": "D1A", "normalised enrichment score": 1.19}
{"Substitution": "L7A", "normalised enrichment score": -0.367}
{"Substitution": "V12A", "normalised enrichment score": 1.39}
{"Substitution": "E13A", "normalised enrichment score": 0.712}
{"Substitution": "F9A", "normalised enrichment score": -0.202}
{"Substitution": "S5A", "normalised enrichment score": 1.52}
{"data": "Block 4", "target": "ABI1, truncated, D143A, DHFR fusion (Arabidopsis thaliana)", "method": "DHFR PCA, deep sequencing", "matrix": "yeast", "setting": "methotrexate growth selection, single substitutions", "with": "(+)-ABA 17 µM", "baseline": "wild-type fitted maximum", "reading": "higher = stronger binding", "parent": "PYL1, truncated, DHFR fusion (Arabidopsis thaliana); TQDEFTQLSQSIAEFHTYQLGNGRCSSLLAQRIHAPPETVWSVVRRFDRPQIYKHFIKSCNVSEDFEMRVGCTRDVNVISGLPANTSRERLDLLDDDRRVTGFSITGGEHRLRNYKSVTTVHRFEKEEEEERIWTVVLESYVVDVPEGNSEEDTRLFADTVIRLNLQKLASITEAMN; partner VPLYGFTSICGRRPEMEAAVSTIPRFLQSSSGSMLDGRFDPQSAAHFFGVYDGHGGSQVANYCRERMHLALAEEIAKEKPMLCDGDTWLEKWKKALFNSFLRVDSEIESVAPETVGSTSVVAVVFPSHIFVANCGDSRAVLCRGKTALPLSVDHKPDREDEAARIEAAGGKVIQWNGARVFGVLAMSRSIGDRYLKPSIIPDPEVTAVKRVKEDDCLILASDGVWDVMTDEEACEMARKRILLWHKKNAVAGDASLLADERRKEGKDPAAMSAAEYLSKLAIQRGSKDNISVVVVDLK"}
{"Substitution": "E4L", "relative binding score [%]": 78.9}
{"Substitution": "E4N", "relative binding score [%]": 72.1}
{"Substitution": "P36R", "relative binding score [%]": 73.2}
{"Substitution": "N85W", "relative binding score [%]": 78.3}
{"Substitution": "D153L", "relative binding score [%]": 0.57}
{"Substitution": "K168A", "relative binding score [%]": 75}
{"Substitution": "R88K", "relative binding score [%]": 85.4}
{"Substitution": "E38M", "relative binding score [%]": 18.1}
{"Substitution": "E128Q", "relative binding score [%]": 89.1}
{"Substitution": "Q167F", "relative binding score [%]": 51.4}
{"Substitution": "Q2F", "relative binding score [%]": 81.2}
{"Substitution": "R74F", "relative binding score [%]": 8.88}
{"Substitution": "R99K", "relative binding score [%]": 100}
{"Substitution": "A175K", "relative binding score [%]": 95.8}
{"Substitution": "L169Q", "relative binding score [%]": -2.68}
{"Substitution": "R88G", "relative binding score [%]": 1.7}
{"Substitution": "D97V", "relative binding score [%]": 88}
{"Substitution": "T119C", "relative binding score [%]": 82.2}
{"Substitution": "P37A", "relative binding score [%]": 74.7}
{"Substitution": "E129F", "relative binding score [%]": 76.8}
{"Substitution": "T1I", "relative binding score [%]": 86}
{"data": "Block 5", "Sequence": "B1 (IAA20)", "method": "two-hybrid", "setting": "weak activation fusion", "reading": "higher = firmer interaction", "B1": "IAA20 (Arabidopsis thaliana, UniProt O24410); chain MGRGRSSSSSSIESSSKSNPFGASSSTRNLSTDLRLGLSFGTSSGTQYFNGGYGYSVAAPAVEDAEYVAAVEEEEENECNSVGSFYVKVNMEGVPIGRKIDLMSLNGYRDLIRTLDFMFNASILWAEEEDMCNEKSHVLTYADKEGDWMMVGDVPWEMFLSTVRRLKISRANYHY"}
{"partner": "ARF12 500-593 (Arabidopsis thaliana, UniProt Q9XID4)", "how to read": "baseline: out of 4 tests", "positive tests": 0}
{"partner": "ARF10 575-693 (Arabidopsis thaliana, UniProt Q9SKN5)", "how to read": "baseline: out of 4 tests", "positive tests": 0}
{"partner": "ARF13 (Arabidopsis thaliana, UniProt Q9FX25)", "how to read": "baseline: out of 4 tests", "positive tests": 0}
{"partner": "IAA33 (Arabidopsis thaliana, UniProt Q9FKM7)", "how to read": "baseline: out of 4 tests", "positive tests": 2}
{"partner": "ARF16 570-670 (Arabidopsis thaliana, UniProt Q93YR9)", "how to read": "baseline: out of 4 tests", "positive tests": 0}
{"partner": "ARF14 497-605 (Arabidopsis thaliana, UniProt Q9LQE8)", "how to read": "baseline: out of 2 tests", "positive tests": 0}
{"partner": "IAA27 (Arabidopsis thaliana, UniProt Q9ZSY8)", "how to read": "baseline: out of 2 tests", "positive tests": 1}
{"partner": "ARF9 519-638 (Arabidopsis thaliana, UniProt Q9XED8)", "how to read": "baseline: out of 4 tests", "positive tests": 1}
{"partner": "IAA30 (Arabidopsis thaliana, UniProt Q9M1R4)", "how to read": "baseline: out of 4 tests", "positive tests": 2}
{"data": "Other studies, line by line"}
{"Substance": "PhoQ, residues 284 288 289 292 302 303 SNGLAW", "target": "PhoP, residues 12 14 15 18 19 HEGLL (Escherichia coli, UniProt P23836)", "assay": "Sort-seq, item: YFP reporter", "test system": "E. coli", "setting": "PhoQ-PhoP variant library, with: 10 µM Mg2+", "how to read": "baseline: high Mg2+ state, higher = stronger signaling", "measurement": "fold induction", "result": 2.09}
{"note": "Excerpt of the above (block 4):"}
{"Substitution": "E128Q", "relative binding score [%]": 89.1}
{"Substitution": "Q167F", "relative binding score [%]": 51.4}
{"Substitution": "Q2F", "relative binding score [%]": 81.2}
{"Substitution": "R74F", "relative binding score [%]": 8.88}
{"Substitution": "R99K", "relative binding score [%]": 100}
{"Substitution": "A175K", "relative binding score [%]": 95.8}
